# Experimental data collected from several papers.
# Parts stem from different laboratories: compare values within a part only. Positions count from the first letter of the parent shown.

# Study 1 — method: protein binding microarray; form: double-stranded DNA, one strand shown; matrix: in vitro; concentration: not given; reference: not given; reading: higher = stronger binding
# Target: Histone acetyltransferase KAT6A, winged helix 1, GST fusion (KAT6A, Homo sapiens, UniProt Q92794, residues 1-85)
# Notes: 8-mer, flanks averaged, mean of 2 arrays, mostly near background
# Residues (chain): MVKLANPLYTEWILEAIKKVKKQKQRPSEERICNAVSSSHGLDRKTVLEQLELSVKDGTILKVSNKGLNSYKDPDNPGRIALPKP
Sequence,E-score
CGACTTGC,0.0331
AGGCCGAC,0.202
CACCCACG,0.111
GCCCCGAC,0.247
GACCTCCA,-0.065
ATATGCAA,-0.115
CGTCATGC,0.209
CATCAAAG,-0.076

# Study 2 — method: two-hybrid; reference: out of 4 tests; reading: higher = firmer interaction
# Partner: ARF5 788-902 (Arabidopsis thaliana, UniProt P93024)
# B1: ARF1 538-665 (Arabidopsis thaliana, UniProt Q8L7G0); chain SRQIRSCTKVHMQGSAVGRAIDLTRSECYEDLFKKLEEMFDIKGELLESTKKWQVVYTDDEDDMMMVGDDPWNEFCGMVRKIFIYTPEEVKKLSPKNKLAVNARMQLKADAEENGNTEGRSSSMAGSR
# B2: IAA34 (Arabidopsis thaliana, UniProt Q9C5X0); chain MYCSDPPHPLHLVASDKQQKDHKLILSWKKPTMDSDPLGVFPNSPKYHPYYSQTTEFGGVIDLGLSLRTIQHEIYHSSGQRYCSNEGYRRKWGYVKVTMDGLVVGRKVCVLDHGSYSTLAHQLEDMFGMQSVSGLRLFQMESEFCLVYRDEEGLWRNAGDVPWNEFIESVERLRITRRNDAVLPF
# B3: IAA33 (Arabidopsis thaliana, UniProt Q9FKM7); chain MNSFEPQSQDSLQRRFHQDNSTTQQPRDTTTPFIPKPASKNHNNSNSSSGAAGRSFQGFGLNVEDDLVSSVVPPVTVVLEGRSICQRISLDKHGSYQSLASALRQMFVDGADSTDDLDLSNAIPGHLIAYEDMENDLLLAGDLTWKDFVRVAKRIRILPVKGNTRQVKRNE
# Residues (chain): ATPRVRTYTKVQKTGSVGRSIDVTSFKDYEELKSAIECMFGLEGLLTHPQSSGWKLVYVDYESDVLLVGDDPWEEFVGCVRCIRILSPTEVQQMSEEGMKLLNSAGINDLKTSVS
Molecule,positive tests
B1 (ARF1 538-665),0
B2 (IAA34),3
B3 (IAA33),2

# Study 3 — method: RNA Bind-n-Seq; form: RNA; matrix: in vitro; concentration: 200 nM; notes: whole 134-nt RNA, ends assumed; with: 150 mM KCl; reference: input library; reading: higher = stronger binding
# Target: Ras GTPase-activating protein-binding protein 1, full length (G3BP1, Homo sapiens, UniProt Q13283)
# Sequence of UniProt Q13283 (whole entry, looked up): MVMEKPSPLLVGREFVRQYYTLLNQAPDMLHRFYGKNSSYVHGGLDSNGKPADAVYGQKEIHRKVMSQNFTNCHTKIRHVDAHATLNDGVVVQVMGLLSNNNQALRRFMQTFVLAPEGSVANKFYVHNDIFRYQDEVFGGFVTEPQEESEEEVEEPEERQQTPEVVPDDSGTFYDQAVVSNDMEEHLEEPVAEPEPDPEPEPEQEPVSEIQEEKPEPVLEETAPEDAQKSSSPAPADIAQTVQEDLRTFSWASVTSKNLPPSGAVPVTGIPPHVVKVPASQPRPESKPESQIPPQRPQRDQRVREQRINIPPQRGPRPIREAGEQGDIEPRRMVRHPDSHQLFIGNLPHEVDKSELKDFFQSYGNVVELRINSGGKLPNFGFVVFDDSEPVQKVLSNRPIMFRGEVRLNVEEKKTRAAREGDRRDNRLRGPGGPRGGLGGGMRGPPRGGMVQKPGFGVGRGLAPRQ
# Shared flanks, not repeated: GGGAGUUCUACAGUCCGACGAUC … UGGAAUUCUCGGGUGUCAAGG
Sequence,log2 enrichment
CAAGUCCUGUGCUACACAUCGUAUGUACCGAAUCGGAAAAAGGUUUUUGGAAAGGAAAGUAUUAUGUUACGCCGUUCGGAUCUGCACUUC,-1.36
GUCCUGUGCUACACAUCGUAUGUACCGAAUCGGGGAGGGGAAAAAAAGGGGAAAGGGGAAAGUAUUAUGUUACGCCGUUCGGAUCUGCAC,0.675
UCCUCAAGUCCUGUGCUACACAUCGUAUGUACCGAAUCGGUGGGUGGGGUGGAAAGUAUUAUGUUACGCCGUUCGGAUCUGCACUUCCAG,0.439
AGUCCUGUGCUACACAUCGUAUGUACCGAAUCGGAAAAAAAGGAAAAAAAGGAAAGGAAAGUAUUAUGUUACGCCGUUCGGAUCUGCACU,-1.45
CCUGUGCUACACAUCGUAUGUACCGAAUCGGGCCCCCCCGGGCCCCCCCGGCCCCCCCGGGAAAGUAUUAUGUUACGCCGUUCGGAUCUG,-0.223
UGUGCUACACAUCGUAUGUACCGAAUCGUGUGUGUGUGUGUGUGUGUGUGUGUGUGUGUGUGUAAAGUAUUAUGUUACGCCGUUCGGAUC,0.802
CAAGUCCUGUGCUACACAUCGUAUGUACCGAAUCGGGAAAAAGGGUGGGUUUGGGAAAGUAUUAUGUUACGCCGUUCGGAUCUGCACUUC,0.69
UGGGAGGUGGAUUCUGUUUAUUUUUUUAGCUCAUUUCCAGGGGUGGGAAUUUUUUUUUAAUAUGUGUCAUGAAUAAAGUUGUUUUUGAAA,0.0741

# Mixed results
# Starting sequence: viral docking peptide; KGVKRKLFAEDSS; partner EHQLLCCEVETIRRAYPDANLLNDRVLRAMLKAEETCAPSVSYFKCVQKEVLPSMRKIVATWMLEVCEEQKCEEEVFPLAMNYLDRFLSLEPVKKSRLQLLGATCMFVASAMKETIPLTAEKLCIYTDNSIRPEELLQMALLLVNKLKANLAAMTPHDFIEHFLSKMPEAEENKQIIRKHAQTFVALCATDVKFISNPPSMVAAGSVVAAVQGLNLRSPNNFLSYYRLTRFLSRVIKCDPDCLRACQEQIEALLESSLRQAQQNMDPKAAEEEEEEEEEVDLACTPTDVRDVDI
Variant,target,test,test system,setting,scale,endpoint,value
KGIKRKLFAEDSS [V3I],"CCND1, cyclin fold, Cln2 fusion (human)","yeast growth competition, sequencing",yeast,strong parent motif,"reference: not given, higher = stronger binding",normalised enrichment score,1.17

# For quick reference, copied from above (study 3):
Sequence,log2 enrichment
CAAGUCCUGUGCUACACAUCGUAUGUACCGAAUCGGAAAAAGGUUUUUGGAAAGGAAAGUAUUAUGUUACGCCGUUCGGAUCUGCACUUC,-1.36
GUCCUGUGCUACACAUCGUAUGUACCGAAUCGGGGAGGGGAAAAAAAGGGGAAAGGGGAAAGUAUUAUGUUACGCCGUUCGGAUCUGCAC,0.675
